Published values gathered from unrelated publications.
Numbered parts are unrelated; each lists some results of a single study.

Block 1
Target: RNA binding protein fox-1 homolog 2, RRM domain, GST-SBP tag (RBFOX2, Homo sapiens, UniProt O43251-10, residues 100-194)
Technique: RNA Bind-n-Seq
Form: RNA
Matrix: in vitro
Tested at: 365 nM
Notes: natural RNA segment, single round, ends assumed
Baseline: no-protein control
Direction: higher = stronger binding
All sequences stand within: GGGAGUUCUACAGUCCGACGAUC … UGGAAUUCUCGGGUGCCAA
Target sequence (chain): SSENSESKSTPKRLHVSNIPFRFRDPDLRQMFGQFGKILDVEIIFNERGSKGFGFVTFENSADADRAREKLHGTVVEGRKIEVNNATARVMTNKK
Sequence	RBNS enrichment (R)
UAUAUAGGGGCACCCCAGACGCUGCAGUGACUUCAGCUAUCAACAAACUGUUAACCAUGUACAAUAUUGGAAAUAGGCUGAUUUUGAUGUAUUGCCUAUUCUUCAAGUAC	0.678
CAGAAUUCUAGAGACAGCGUUGUUCGGCAUCAAGGCAAAAGCCCACCUUUGCUUUUUAUGGAAAGCAUUACUUUAUUUAAAGAGACAGACAAUGACGCAUUUUAAUCUAC	0.464
GUGCUGUAGGUAACGUGUGGCACUGCUGGCAAAUGAAGGUCAUGAGAUGAGUUCCUUGUAGGUACCAGCUUCUGGCUCAAGAGUUGAAGGUGCCAUCGCAGGGUCAGGCC	0.519
ACCAAAUUGUUGUGUUGAGAUGAUAUUUAACUUUUUGCCAAAUAAAAUAUAUUGAUUCUUUUCUAUUUUUGCGGGUCUGCUCUUUGCACCUUCUUCUCUGGGUCAGGGGA	1.85
UUUGUAAAAUUUAAACAUCGUAUGCGCAUAAACAAAAAUGAACAAGAAUUAGGGGGAAAUAACAUUUUCCAAAUAAUUAUAAAAAAUUUGUCCUGUGUCUAUGUAUCUAU	0.438
CACAUUUGAACUCUUGACACUUCCAGCUCCCUCAGCUCCUGGCUAGAAGGCUGGAGAUCAGUUGGAUAUCCUCUCUCCUUUUUGAAAACGCCCCUAAGUAGUUUAUCCAA	0.727
ACCUGUCUGUAUUAUUCUGACCCAGGGGAGUCAGUCACUGUGGGGCCUCCUUCCUCUGCUGGUAUACUCAUGGACUCAUUCACUGCCAAGAUGACCAAAUACUCUACCAC	0.579
AGGCCCUCCCGAGAGACCCAGUCACACGUCUCUGCUUUAAGCCUUAGCCAGCUAGUGACGAGUACAACGAGAUAACGCCCAUGUGUUUUGGAACAUUUAUGUAAGAUUGU	0.357
ACAGUGACUUGAGCUAUAGAUAGUAAAAAUCAUACGAGAGUUGAACUGAGUCAGGUUUAGGAAGCAAGUUUGGUUGCAUCAAUUAAGCAGGCUCUUUUCAAUUGACUGAU	0.25
UCCCCUUGAGUUGGGGCUGAUAUAGCAGGAGUGAAUCUUGUGGGGGAGUUUUUUUCCUCCACAUUUUGAGAUUUUGUGAUAAAUGGGAUGUGUGCCCACCCCUGACAUCU	0.3
GCACCACCACUGUGGAUUGCACGCCUUUCUGGGUGGCUGCAGUCUCUGUCCCUUGUGAAAGCAUGGCAGCUUCAGGCCCAUCUGCGGGCAUGUGGCUGUUUUUCCUGGGA	16.6
GUGGAAAGUCAAGGUUUGUGUCUUUUCUACUGAGGUCUCAGAAAGAGAGAGAACAUCUCUCCGGACCCCCUGACUCAGAGCCUCGUGGCCCGGCAUCCCUUAGCCUCUAU	0.408

Block 2
Target: Histone acetyltransferase KAT6A, winged helix 2, GST fusion (KAT6A, Homo sapiens, UniProt Q92794, residues 85-181)
Technique: protein binding microarray
Form: double-stranded DNA, one strand shown
Matrix: in vitro
Tested at: not given
Notes: 8-mer, flanks averaged, mean of 2 arrays, mostly near background
Baseline: not given
Direction: higher = stronger binding
Residues (chain): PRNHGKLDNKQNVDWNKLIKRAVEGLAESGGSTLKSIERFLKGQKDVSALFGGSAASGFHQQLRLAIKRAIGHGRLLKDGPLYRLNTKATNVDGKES
Sequence	E-score
GCGTACGA	0.111
GAATTAGC	0.0792
AATGGCAG	0.124
AACTTCCA	-0.019
TACATTGA	-0.0285
GGGCCTTA	-0.141
ACGGCTAG	-0.112
ACACCGAT	-0.151
TCCCAGCA	0.171
TCCGACAA	0.0781
CATTAATC	-0.0158
CTCCCTTA	-0.161
TACATGAA	-0.1
AGTTACAT	-0.165
ACTCTAGA	-0.147
ATTCCGTC	-0.175

Block 3
Target: PABPC1L2, full length, GST fusion (mouse, UniProt A0ABA7IW68)
Technique: RNAcompete
Form: RNA
Matrix: in vitro
Tested at: 20 nM
Notes: 7-mer, probes averaged, single round
Baseline: mean of 7-mers
Direction: higher = stronger binding
Target sequence (chain): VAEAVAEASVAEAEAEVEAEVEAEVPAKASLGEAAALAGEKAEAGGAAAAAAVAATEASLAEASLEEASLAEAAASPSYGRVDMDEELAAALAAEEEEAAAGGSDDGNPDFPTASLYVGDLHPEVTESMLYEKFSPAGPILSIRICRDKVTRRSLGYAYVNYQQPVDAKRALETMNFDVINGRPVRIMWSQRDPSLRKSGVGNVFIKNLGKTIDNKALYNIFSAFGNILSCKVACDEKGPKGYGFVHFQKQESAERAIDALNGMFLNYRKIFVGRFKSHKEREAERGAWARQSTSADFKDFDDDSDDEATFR
Sequence	7-mer Z-score
GUUGGAU	-0.0881
UGCUUCA	-0.289
GGUCCUG	-0.217
AAUUUCG	-0.0754
CUAGGCG	-0.0645
GUCUAGU	-0.351
CUUACAA	0.196
GGAGUAU	0.0497
AAGGUCU	-0.0718
AUAUAAU	-0.00833
GCCCCCG	-0.421
UGUCUCA	-0.206
UCCUGAG	-0.275
ACGGAAA	0.802
UGUUCAA	-0.208
AUGCAGU	-0.151
AUGCAGA	0.115
CGUCGUU	-0.508
CUCCGAU	-0.277
UUAGCAC	-0.287
GAACAGU	-0.00833
CCAUCCG	-0.427
GAACGGA	0.037

Block 4
Target: Interferon regulatory factor 5, full length, phosphomimetic (IRF5, Homo sapiens, UniProt Q13568-2, residues 1-514, S451D/S453D/S456D/S462D)
Technique: protein-binding microarray
Form: double-stranded DNA, one strand shown
Matrix: in vitro
Tested at: 940 nM top
Notes: 60-bp whole probe
Together with: salmon DNA 0.4 mg/ml
Baseline: random background probes
Direction: higher = stronger binding
All sequences stand within: GCCTAGCAC … GTCTTGATTCGCTTGACGCTGCTG
Sequence	fitted relative affinity [z-score]
GACGTTTTCAGTCTCGAGACGTGCTAG	2.23
TCATTTTGAGTTTTCCTACTGTGCTAG	0.301
TTAGAACTGAGTCTAGATTAGTGCTAG	-0.285
CAAGTTTGCCTCCTTCAGTCAGTGCTA	0.42
TCATCTTTATGTACTCTCACTGTGCTA	1.49
TTAGGGCTGGGTTTCGGTTAGTGCTAG	7.26
TTAGGACTGGGTATAGGTTAGTGCTAG	-0.427
TGACAGCAGGAACATGGGCTGTGCTAG	-0.661
AATAAAATGAATATTAGAAGGTGCTAG	-0.091
TCACATATCGGGGTGCGCACTGTGCTA	0.701
GACAGTATCCTTTTCCTGACGTGCTAG	1.61
TTAGGTTCCCTATTCCTTTAGTGCTAG	0.551
TTAGGACTGGGGGTTCGGTTAGTGCTA	0.956
GACGATATCAGCATCGAGACGTGCTAG	-0.145
TTAGGACTGCTTTTCCTTTCGTGCTAG	-0.147
GTAGAACTGAGACTGGATTAGTGCTAG	-0.154
TTAGGACTGGACACTGGGTTGGTGCTA	-0.118
GACGGAGTGGGTCTCGGGACGTGCTAG	-0.182
TAAGGTATCCTTATCCTTTAGTGCTAG	0.275
TTAGCACTGGGGACTGGATTAGTGCTA	-0.18
CTGCAGCCCACTCCTGAACAGTGCTAG	-0.324

Block 5
Target: RING finger protein unkempt homolog, zinc fingers 1-6, GST-SBP tag (UNK, Homo sapiens, UniProt Q9C0B0, residues 30-357)
Technique: RNA Bind-n-Seq
Form: RNA
Matrix: in vitro
Tested at: not given
Notes: RNA with constant flanks, ends assumed
Baseline: input RNA pool
Direction: higher = stronger binding
All sequences stand within: GGGAGUUCUACAGUCCGACGAUC … CAACAGAGGAUUGAGCAUCA
Target sequence (chain): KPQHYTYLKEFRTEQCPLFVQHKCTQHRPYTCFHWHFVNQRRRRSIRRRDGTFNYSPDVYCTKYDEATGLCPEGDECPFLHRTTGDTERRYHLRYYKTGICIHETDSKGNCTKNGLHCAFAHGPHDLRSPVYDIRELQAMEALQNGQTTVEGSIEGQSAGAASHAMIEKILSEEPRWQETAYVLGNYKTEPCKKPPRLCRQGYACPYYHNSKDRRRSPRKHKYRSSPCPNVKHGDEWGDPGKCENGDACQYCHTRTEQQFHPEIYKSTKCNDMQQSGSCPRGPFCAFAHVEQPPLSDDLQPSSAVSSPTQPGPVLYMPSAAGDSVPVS
Sequence	bound/input enrichment
UCAGAUAACGUCACUCGCGCUUGUAGCUUCAUCCGGGAGGCAGCAACGCAAGGAGCCAAAACCGUUUCUUUGCCGGAAUGCUUUAAUUCUCCAUAUGGAGCGAAAUAUUUUCCUGAAUAU	0.106 ratio
GAUUAUCUUCGUUCAAAUGGCUAUGAAGAGGCAUAUUCAGUUUUUAAAAAGGAAGCUGAAUCCGAUGUGAAUGAAGAAUUAGAUAAAAAGUAUGCUGGUCUUUUGGAAAAAAAAUGGACA	1.59 ratio
CUAACCCUUCAACCCCCUCGCCUCCUACUCUGAGACAAAAGAAAAAAUAUUAAAAAAAUGCACCGGCUUAACUCGCUGAUGAGUUAAUUGUUUUAUUUUUAAACUCUUUUUGGGUCCAGU	0.368 ratio
GAUGAGGGUCAGAAGCCUUACCUGGUACAGCGGAGAGGAGCUGAAUUUGCCUUAACAACUACCGUGAAGCAUUUUGGUGCUGAAAUGGCAGUGAAGUUGCCACAUCUUUGGGAUGCUAUG	0.0763 ratio
UUACGUUUAAGACCUAGCCUUUGAUGUGGUAUUUAUGUAACGUUUGUACAGUGAUUUACUCUCCGUUUGUUACCUUUAUCACCUGUACAAUUGCACUAUUUAAAUGUACUCCUUCUUAAU	0.501 ratio
UCUUGUAGAAGAUGGACUCUGAAAAACAUUCCAGGAAACCAUGGCAGCAUGGAGAGCCUCUCCGUGAUUGUGUCUGCAUUGUUAUUGUGGAAGAUUUACCUUUUCUGUUGUACGUAAAGC	0.12 ratio
CAGUGGGACGGGGAGCAAAGCCCCAGAGGGGAGCGAAACAGGUGGAAGUACGAGGAAUUUUCCGAUCAUCCAGGCCAUAUCCACAGUAGUCCUUGUCAUGAAAGGCCCAACAAUGUCUCU	0.123 ratio
GGCCUGGGACCGUCCUGGGCUAGUACAAAUAGCGGCAGUGGAGGCUCGAGAGGAAAGUUUGUCCGUGGAGGCAGUGGUAGAGGCCGUCAUGUACGGUCCUUUACUCGAUAGAUGUGUUCU	0.303 ratio
UGGGUUACUCCUAUUAUUAUCAAGUAGCUGGAAUUGUGAAGGUCGGAGUAGUUAGAUCUUCCGCUUUUAUUCCUUAUUUUUUUGUAUUACUCUCCAUGUGUAUAAAUUAUUGAUCAUGUU	36.9 ratio
GGUAACCAGAGAAAAGUUCCUUUCUGAAUGGAGAGCUCUCCUCACUGCUCCAGCACCAUACUCCGAACCCUCACUCUCUUUCAAAAGAAUGGCAGUUGAGAUUCACUGGCCCUCAGGGGA	0.0866 ratio
AUCAGAGACCAUGUAGUUCAACUUUCCACUCAAAGUAAGAUUUAUGAAUUAUUUAAAUGACCGUUGUUACUUGGAACAGCCACUUGAGAGGCUCUCUUGGUAUUGUUUGGAAUUGUUUUA	1.13 ratio

For quick reference, copied from above (block 2):
Sequence	E-score
TACATTGA	-0.0285
GGGCCTTA	-0.141
ACGGCTAG	-0.112
ACACCGAT	-0.151
TCCCAGCA	0.171
TCCGACAA	0.0781
CATTAATC	-0.0158
CTCCCTTA	-0.161
TACATGAA	-0.1
